Literature values that unrelated publications cite.
Compare with care: the assays were run in different laboratories. Numbers after ± are the reported error.
CYP3A4: Cytochrome P450 3A4 (CYP3A4, Homo sapiens, UniProt P08684)
UniProt P08684, sequence (whole entry, looked up): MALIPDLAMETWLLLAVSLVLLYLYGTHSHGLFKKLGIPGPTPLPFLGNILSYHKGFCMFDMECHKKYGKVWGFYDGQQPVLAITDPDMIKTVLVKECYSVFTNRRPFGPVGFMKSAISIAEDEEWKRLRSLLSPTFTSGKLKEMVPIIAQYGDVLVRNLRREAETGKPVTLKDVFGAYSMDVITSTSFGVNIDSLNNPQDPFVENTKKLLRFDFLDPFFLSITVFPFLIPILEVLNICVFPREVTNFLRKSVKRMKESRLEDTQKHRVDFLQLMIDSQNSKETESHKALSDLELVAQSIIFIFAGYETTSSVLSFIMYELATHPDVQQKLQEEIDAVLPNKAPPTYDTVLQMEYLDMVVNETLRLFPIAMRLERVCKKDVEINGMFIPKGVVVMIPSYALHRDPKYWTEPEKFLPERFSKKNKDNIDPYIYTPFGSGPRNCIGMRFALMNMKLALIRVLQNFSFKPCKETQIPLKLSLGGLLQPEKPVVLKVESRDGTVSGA
UniProt P10632, sequence (whole entry, looked up): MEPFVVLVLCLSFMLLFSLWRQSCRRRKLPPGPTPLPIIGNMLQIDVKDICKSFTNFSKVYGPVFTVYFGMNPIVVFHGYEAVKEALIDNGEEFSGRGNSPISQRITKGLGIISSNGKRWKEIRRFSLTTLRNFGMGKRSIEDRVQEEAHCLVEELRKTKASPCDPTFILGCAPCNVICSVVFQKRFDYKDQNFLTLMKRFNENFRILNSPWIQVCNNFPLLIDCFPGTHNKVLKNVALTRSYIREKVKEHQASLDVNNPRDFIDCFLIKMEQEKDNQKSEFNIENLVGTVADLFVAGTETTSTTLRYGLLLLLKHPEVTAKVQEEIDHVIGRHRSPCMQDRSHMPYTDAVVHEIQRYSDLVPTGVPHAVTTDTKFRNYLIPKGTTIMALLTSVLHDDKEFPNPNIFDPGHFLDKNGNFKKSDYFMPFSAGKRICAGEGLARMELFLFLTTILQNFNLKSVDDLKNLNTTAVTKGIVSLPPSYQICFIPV
UniProt Q06278, sequence (whole entry, looked up): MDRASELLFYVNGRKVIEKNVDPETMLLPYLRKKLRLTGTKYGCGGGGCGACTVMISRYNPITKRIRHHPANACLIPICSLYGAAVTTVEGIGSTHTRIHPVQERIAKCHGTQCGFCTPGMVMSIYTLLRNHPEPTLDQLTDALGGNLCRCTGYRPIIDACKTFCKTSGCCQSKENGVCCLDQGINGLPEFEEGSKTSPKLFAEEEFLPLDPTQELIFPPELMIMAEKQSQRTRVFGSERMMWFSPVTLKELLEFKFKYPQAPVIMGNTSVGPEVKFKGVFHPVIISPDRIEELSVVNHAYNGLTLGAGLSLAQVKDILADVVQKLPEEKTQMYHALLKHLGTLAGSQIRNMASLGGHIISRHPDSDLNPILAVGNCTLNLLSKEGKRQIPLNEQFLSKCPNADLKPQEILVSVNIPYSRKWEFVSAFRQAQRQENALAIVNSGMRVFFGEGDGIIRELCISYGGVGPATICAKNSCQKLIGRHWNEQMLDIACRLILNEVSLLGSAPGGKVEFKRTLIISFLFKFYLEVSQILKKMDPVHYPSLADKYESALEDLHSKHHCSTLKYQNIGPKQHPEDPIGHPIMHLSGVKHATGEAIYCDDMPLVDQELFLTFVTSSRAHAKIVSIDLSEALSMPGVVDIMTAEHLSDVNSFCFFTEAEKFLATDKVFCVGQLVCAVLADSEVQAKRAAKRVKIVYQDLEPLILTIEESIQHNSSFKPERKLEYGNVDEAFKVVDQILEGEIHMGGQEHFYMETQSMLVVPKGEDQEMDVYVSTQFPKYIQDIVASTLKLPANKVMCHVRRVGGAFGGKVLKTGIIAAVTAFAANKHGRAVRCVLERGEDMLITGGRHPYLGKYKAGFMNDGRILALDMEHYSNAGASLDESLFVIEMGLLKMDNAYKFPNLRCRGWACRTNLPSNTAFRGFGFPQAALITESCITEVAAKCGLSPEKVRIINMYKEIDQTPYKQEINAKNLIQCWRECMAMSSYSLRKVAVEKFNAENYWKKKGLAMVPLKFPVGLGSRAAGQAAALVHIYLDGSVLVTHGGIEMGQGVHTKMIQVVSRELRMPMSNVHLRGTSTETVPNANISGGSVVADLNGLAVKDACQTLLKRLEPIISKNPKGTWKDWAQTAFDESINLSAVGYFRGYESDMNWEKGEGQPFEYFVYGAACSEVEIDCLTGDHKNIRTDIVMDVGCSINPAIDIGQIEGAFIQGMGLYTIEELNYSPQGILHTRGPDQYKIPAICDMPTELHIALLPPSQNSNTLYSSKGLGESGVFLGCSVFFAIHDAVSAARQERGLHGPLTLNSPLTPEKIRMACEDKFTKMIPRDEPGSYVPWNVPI
UniProt Q9UNQ0, sequence (whole entry, looked up): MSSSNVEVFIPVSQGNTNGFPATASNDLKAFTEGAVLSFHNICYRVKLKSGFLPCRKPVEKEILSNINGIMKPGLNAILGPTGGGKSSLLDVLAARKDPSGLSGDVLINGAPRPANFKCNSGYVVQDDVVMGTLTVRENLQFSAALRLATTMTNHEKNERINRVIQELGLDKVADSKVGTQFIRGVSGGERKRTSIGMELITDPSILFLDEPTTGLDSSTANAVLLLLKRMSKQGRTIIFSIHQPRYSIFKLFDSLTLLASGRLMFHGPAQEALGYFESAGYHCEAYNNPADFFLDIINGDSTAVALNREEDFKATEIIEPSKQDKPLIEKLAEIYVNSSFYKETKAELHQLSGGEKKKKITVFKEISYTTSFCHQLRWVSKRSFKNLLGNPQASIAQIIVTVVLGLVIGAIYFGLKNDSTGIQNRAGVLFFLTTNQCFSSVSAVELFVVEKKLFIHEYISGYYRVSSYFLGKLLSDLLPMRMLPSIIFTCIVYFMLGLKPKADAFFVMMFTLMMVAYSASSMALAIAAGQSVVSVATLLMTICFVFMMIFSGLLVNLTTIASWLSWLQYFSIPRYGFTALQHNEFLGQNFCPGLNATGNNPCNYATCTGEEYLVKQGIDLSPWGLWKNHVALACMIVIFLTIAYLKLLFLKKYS
UniProt P08183, sequence (whole entry, looked up): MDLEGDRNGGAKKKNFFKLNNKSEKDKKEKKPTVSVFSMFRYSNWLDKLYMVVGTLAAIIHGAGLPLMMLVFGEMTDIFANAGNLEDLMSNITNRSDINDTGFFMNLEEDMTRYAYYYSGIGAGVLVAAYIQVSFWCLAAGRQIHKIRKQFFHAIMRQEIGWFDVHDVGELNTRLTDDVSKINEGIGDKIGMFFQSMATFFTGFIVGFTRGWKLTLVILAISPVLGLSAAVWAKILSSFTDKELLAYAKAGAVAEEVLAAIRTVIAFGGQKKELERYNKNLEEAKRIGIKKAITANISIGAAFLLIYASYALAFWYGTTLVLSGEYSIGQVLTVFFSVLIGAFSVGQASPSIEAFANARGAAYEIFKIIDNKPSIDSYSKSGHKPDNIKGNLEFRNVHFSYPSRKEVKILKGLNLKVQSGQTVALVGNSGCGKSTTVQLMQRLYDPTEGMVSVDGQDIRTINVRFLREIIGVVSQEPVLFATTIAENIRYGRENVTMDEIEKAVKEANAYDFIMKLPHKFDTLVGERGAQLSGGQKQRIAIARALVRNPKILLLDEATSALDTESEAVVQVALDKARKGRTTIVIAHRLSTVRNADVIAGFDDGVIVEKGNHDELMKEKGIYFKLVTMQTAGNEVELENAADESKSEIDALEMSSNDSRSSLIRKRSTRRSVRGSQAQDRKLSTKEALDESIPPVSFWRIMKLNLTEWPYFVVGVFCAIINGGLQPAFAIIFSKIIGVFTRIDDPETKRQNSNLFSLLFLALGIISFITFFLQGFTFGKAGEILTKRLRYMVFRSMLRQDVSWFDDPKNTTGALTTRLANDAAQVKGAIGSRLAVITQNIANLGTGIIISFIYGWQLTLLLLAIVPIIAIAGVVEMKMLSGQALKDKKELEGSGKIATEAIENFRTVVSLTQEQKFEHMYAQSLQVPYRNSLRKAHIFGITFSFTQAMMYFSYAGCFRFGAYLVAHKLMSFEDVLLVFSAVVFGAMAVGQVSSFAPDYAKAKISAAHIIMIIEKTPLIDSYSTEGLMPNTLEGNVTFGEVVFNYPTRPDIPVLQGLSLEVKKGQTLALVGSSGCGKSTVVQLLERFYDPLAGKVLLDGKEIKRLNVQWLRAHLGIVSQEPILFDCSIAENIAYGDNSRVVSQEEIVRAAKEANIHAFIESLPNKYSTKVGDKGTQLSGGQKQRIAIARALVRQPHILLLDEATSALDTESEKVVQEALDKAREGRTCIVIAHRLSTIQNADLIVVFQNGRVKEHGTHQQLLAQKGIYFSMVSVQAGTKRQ
UniProt Q96NX5, sequence (whole entry, looked up): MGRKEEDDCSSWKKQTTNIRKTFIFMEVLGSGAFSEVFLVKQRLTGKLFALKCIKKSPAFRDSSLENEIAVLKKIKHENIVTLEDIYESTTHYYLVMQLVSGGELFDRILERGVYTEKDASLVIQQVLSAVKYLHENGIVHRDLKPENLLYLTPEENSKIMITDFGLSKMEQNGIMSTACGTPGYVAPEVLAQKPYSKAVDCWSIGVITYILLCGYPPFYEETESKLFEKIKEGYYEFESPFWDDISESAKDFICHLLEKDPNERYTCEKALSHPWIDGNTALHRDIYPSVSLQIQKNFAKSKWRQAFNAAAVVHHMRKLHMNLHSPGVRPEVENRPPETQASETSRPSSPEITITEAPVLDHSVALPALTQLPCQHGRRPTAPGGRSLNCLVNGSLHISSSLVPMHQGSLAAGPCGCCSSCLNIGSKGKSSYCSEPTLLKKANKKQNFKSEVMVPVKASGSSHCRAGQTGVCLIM

Structure (SMILES) = CC(C)(O/N=C(\C(=O)N[C@@H]1C(=O)N2C(C(=O)[O-])=C(C[n+]3ccccc3)CS[C@H]12)c1csc(N)n1)C(=O)O; tested on = Escherichia coli; system = clinical isolate RKI-No_521/16; measurement = MIC; value = ≤ 2 µg/mL
Structure (SMILES) = Nc1cc(C(F)(F)F)c(-c2nc(N3CCOCC3)nc(N3CCOCC3)n2)cn1; tested on = CAMK1G (Homo sapiens, UniProt Q96NX5); test = enzyme activity; conditions = 10 µM; scale = baseline: untreated; measurement = remaining activity; value = 93%
Structure (SMILES) = C=C[C@@H]1C[C@]1(NC(=O)[C@@H]1C[C@@H]2CN1C(=O)[C@H](C(C)(C)C)NC(=O)O[C@@H]1C[C@H]1CCCCCc1nc3ccc(OC)cc3nc1O2)C(=O)NS(=O)(=O)C1CC1; tested on = human MRP2; test = uptake, inhibitor; system = membrane vesicles; conditions = added: ethacrynic acid glutathione conjugate; measurement = IC50; value = 2.5 µM
Structure (SMILES) = Cc1nc2ccc(F)cc2n1-c1nc(N)c(F)c(Nc2ccc(C(F)(F)F)cc2)n1; tested on = CYP1A2 (human); test = inhibitor; system = pooled human liver microsomes; measurement = Ki; value = 0.074 µM
Structure (SMILES) = C#C[C@]1(O)CC[C@H]2[C@@H]3CCc4cc(O)ccc4[C@H]3CC[C@@]21C; tested on = UGT1A1; test = substrate; system = human liver microsomes; measurement = Km; value = 19.2 µM
Structure (SMILES) = CC(O)c1cc(C(=O)N[C@@H](C)Cn2ccc(-c3ccc(C#N)c(Cl)c3)n2)[nH]n1 (some centres unmarked); tested on = OATP1B3; scale = literature minimum; measurement = IC50; value = 5 µM
Structure (SMILES) = CCn1c(=O)c(-c2cc(NC(=O)Nc3ccccc3)c(F)cc2Br)cc2cnc(NC)cc21; tested on = human serum albumin; measurement = plasma protein binding; value = 99.8%
Structure (SMILES) = CO[C@H]1/C=C/O[C@@]2(C)Oc3c(C)c(O)c4c(O)c(c(/C=N/N5CCN(C)CC5)c(O)c4c3C2=O)NC(=O)/C(C)=C\C=C\[C@H](C)[C@H](O)[C@@H](C)[C@@H](O)[C@@H](C)[C@H](OC(C)=O)[C@@H]1C; tested on = P-glycoprotein (human); test = substrate; measurement = Km; value = 55 µM
Structure (SMILES) = CN(C)C(=N)N=C(N)N; tested on = MATE; system = healthy human; measurement = CLint; value = 300 mL/min
Structure (SMILES) = O=C1Nc2ccc(Cl)cc2[C@@](C#CC2CC2)(C(F)(F)F)O1; tested on = 3A4; conditions = Simcyp compound file; measurement = intrinsic clearance; value = 0.01 µL/min/pmol
Structure (SMILES) = CO[C@H]1C[C@@H]2CC[C@@H](C)[C@@](O)(O2)C(=O)C(=O)N2CCCC[C@H]2C(=O)O[C@H]([C@H](C)C[C@@H]2CC[C@@H](O)[C@H](OC)C2)CC(=O)[C@H](C)/C=C(\C)[C@@H](O)[C@@H](OC)C(=O)[C@H](C)C[C@H](C)/C=C/C=C/C=C/1C; tested on = Cytochrome P450 2C8 (CYP2C8, Homo sapiens, UniProt P10632); test = recombinant enzyme; measurement = intrinsic clearance; value = 0.25 µL/min/pmol CYP
Structure (SMILES) = CC(O)C(C)n1ncn(-c2ccc(N3CCN(c4ccc(OCC5COC(Cn6cncn6)(c6ccc(Cl)cc6Cl)O5)cc4)CC3)cc2)c1=O (centres unmarked); tested on = CYP3A4; test = substrate; measurement = kcat; value = 0.000333 s⁻¹
Structure (SMILES) = C[C@]1(c2nc3c(C(N)=O)cccc3[nH]2)CCCN1; tested on = OCT1/2; system = OCT1/2 double-knockout mice; conditions = dose not given; scale = baseline: wild type; measurement = renal clearance reduction; value = 1.8 fold
Structure (SMILES) = CO[C@H]1/C=C/O[C@@]2(C)Oc3c(C)c(O)c4c(O)c(c(/C=N/N5CCN(C)CC5)c(O)c4c3C2=O)NC(=O)/C(C)=C\C=C\[C@H](C)[C@H](O)[C@@H](C)[C@@H](O)[C@@H](C)[C@H](OC(C)=O)[C@@H]1C; tested on = CYP2B6; test = inducer; measurement = EC50; value = 0.07 µM
Structure (SMILES) = CNC(C)C1CCC(N)C(OC2C(N)CC(N)C(OC3OCC(C)(O)C(NC)C3O)C2O)O1 (centres unmarked); tested on = Enterobacter cloacae; system = clinical isolate RKI-No_141/15; measurement = MIC; value = ≤ 0.5 µg/mL
Structure (SMILES) = CO[C@H]1/C=C/O[C@@]2(C)Oc3c(C)c(O)c4c(O)c(c(/C=N/N5CCN(C)CC5)c(O)c4c3C2=O)NC(=O)/C(C)=C\C=C\[C@H](C)[C@H](O)[C@@H](C)[C@@H](O)[C@@H](C)[C@H](OC(C)=O)[C@@H]1C; tested on = OATP1B3 (SLCO1B3) OATP1B1; conditions = literature geometric mean; measurement = IC50; value = 1.8 µM
Structure (SMILES) = CC(F)(F)c1cc(F)ccc1-c1sc2cc(O)ccc2c1Oc1ccc(/C=C/C(=O)O)cc1; tested on = CYP3A4/5; test = time-dependent inhibitor; measurement = kinact; value = 0.119 ± 0.0024 min⁻¹
Structure (SMILES) = N[C@@H]1c2cccnc2[C@H](OC(=O)N2CCC(n3c(=O)[nH]c4ncccc43)CC2)CC[C@H]1c1cccc(F)c1F; tested on = CYP2C19 (human); system = human liver microsomes; measurement = IC50; value = > 40 µM
Structure (SMILES) = CNCc1cn(S(=O)(=O)c2cccc(F)c2)c(-c2ccc(F)cc2F)c1OC; tested on = OATP1B3; test = transporter uptake, inhibitor; measurement = IC50; value = > 100 µM
Structure (SMILES) = C=CC(O)CO (centres unmarked); tested on = CYP2E1; test = substrate; system = pooled human liver microsomes; measurement = Km; value = ~1000 µM
Structure (SMILES) = O=C(O)CC1CCN(C(=O)c2ccc(Cl)c(Cn3ccc4cc(C(F)(F)F)cc(Cl)c43)c2Cl)CC1; tested on = ABCG2 (Homo sapiens, UniProt Q9UNQ0); test = inhibitor; system = human; conditions = oral, 375 mg once daily; measurement = rosuvastatin Cmax increase; value = 141%
Structure (SMILES) = Cc1ncc([N+](=O)[O-])n1CCO; tested on = CYP2A6; test = substrate; measurement = Km; value = 289 µM
Structure (SMILES) = CC(C)n1c(=O)n(C)c2cnc3cc(F)c(-c4ccc(OCCCN5CCCCC5)nc4)cc3c21; tested on = Aldehyde oxidase (Homo sapiens, UniProt Q06278); test = substrate; system = human liver cytosol; measurement = CLint; value = 3.5 mL/min/mg protein
Structure (SMILES) = C[C@H]1CN(C2COC2)CCN1c1ccc(Nc2cc(-c3ccnc(N4CCn5c(cc6c5CC(C)(C)C6)C4=O)c3CO)cn(C)c2=O)nc1; tested on = OATP1B3 (SLCO1B3) OATP1B1; conditions = literature geometric mean; measurement = IC50; value = 19.7 µM
Structure (SMILES) = O=c1[nH]ncn1-c1ccc(N2CCN(c3ccc(OCC4COC(Cn5cncn5)(c5ccc(Cl)cc5Cl)O4)cc3)CC2)cc1 (centres unmarked); tested on = CYP3A4; test = enzyme activity, competitive inhibitor; measurement = Ki; value = 0.00032 µM
Structure (SMILES) = C[C@H]1O[C@@H](O[C@H]2[C@@H](O)C[C@H](O[C@H]3[C@@H](O)C[C@H](O[C@H]4CC[C@@]5(C)[C@H](CC[C@@H]6[C@@H]5C[C@@H](O)[C@]5(C)[C@@H](C7=CC(=O)OC7)CC[C@]65O)C4)O[C@@H]3C)O[C@@H]2C)C[C@H](O)[C@@H]1O; tested on = ABCB1 (Homo sapiens, UniProt P08183); test = substrate; system = cells, human jejunal crypt-derived; measurement = efflux ratio; value = > 20
Structure (SMILES) = Cc1ccc(C)c(OCCCC(C)(C)C(=O)O[C@@H]2O[C@H](C(=O)O)[C@@H](O)[C@H](O)[C@H]2O)c1; tested on = OATP1B3 (SLCO1B3) OATP1B3; conditions = literature geometric mean; measurement = IC50; value = 74 µM
Structure (SMILES) = CC(=O)Nc1ccc(O)cc1; tested on = UGT1A1; measurement = Vmax; value = 6530 pmol/min/mg protein
Structure (SMILES) = CO[C@H]1/C=C/O[C@@]2(C)Oc3c(C)c(O)c4c(O)c(c(/C=N/N5CCN(C)CC5)c(O)c4c3C2=O)NC(=O)/C(C)=C\C=C\[C@H](C)[C@H](O)[C@@H](C)[C@@H](O)[C@@H](C)[C@H](OC(C)=O)[C@@H]1C; tested on = CYP2C19 human; test = enzyme induction, inducer; measurement = EC50; value = 0.45 µM
Structure (SMILES) = Cc1ccc(C)c(OCCCC(C)(C)C(=O)O)c1; tested on = OATP1B3; scale = literature maximum; measurement = IC50; value = 910 µM
Structure (SMILES) = Cc1ccc(C)c(OCCCC(C)(C)C(=O)O[C@@H]2O[C@H](C(=O)O)[C@@H](O)[C@H](O)[C@H]2O)c1; tested on = OATP1B1; measurement = Ki; value = 7.9 to 24.3 µM
Structure (SMILES) = O=C(O)CN1CCNCCN(CC(=O)O)CCN(CC(=O)O)CC1; tested on = protonation constant; conditions = 0.15 M NaCl; measurement = log KH2; value = 9.83
Structure (SMILES) = COc1cc(N2CCC(N3CCN(C)CC3)CC2)ccc1Nc1ncc(Cl)c(Nc2ccccc2P(C)(C)=O)n1; tested on = CYP3A (human); test = drug interaction; system = human; conditions = 90 mg, added: itraconazole 200 mg; scale = baseline: compound alone; measurement = AUCinf increase; value = 101%
Structure (SMILES) = C=C[C@@H]1C[C@]1(NC(=O)[C@@H]1C[C@@H]2CN1C(=O)[C@H](C(C)(C)C)NC(=O)O[C@@H]1C[C@H]1CCCCCc1nc3ccc(OC)cc3nc1O2)C(=O)NS(=O)(=O)C1CC1; tested on = OATP1B1; scale = literature minimum; measurement = IC50; value = 0.322 µM
Structure (SMILES) = CN[C@@H](C)C(=O)N[C@H]1CN(S(=O)(=O)c2cccc(S(=O)(=O)N3CC[C@H]4CC[C@@H](C(=O)NC(c5ccccc5)c5ccccc5)N4C(=O)[C@@H](NC(=O)[C@H](C)NC)C3)c2)CC[C@H]2CC[C@@H](C(=O)NC(c3ccccc3)c3ccccc3)N2C1=O; tested on = other major human CYP450 enzymes; test = enzyme activity, inhibitor; conditions = concentration not given; measurement = inhibition; value = no inhibition

Excerpt of the above:
Structure (SMILES) = Cc1nc2ccc(F)cc2n1-c1nc(N)c(F)c(Nc2ccc(C(F)(F)F)cc2)n1; tested on = CYP1A2 (human); test = inhibitor; system = pooled human liver microsomes; measurement = Ki; value = 0.074 µM
Structure (SMILES) = C#C[C@]1(O)CC[C@H]2[C@@H]3CCc4cc(O)ccc4[C@H]3CC[C@@]21C; tested on = UGT1A1; test = substrate; system = human liver microsomes; measurement = Km; value = 19.2 µM
Structure (SMILES) = CC(O)c1cc(C(=O)N[C@@H](C)Cn2ccc(-c3ccc(C#N)c(Cl)c3)n2)[nH]n1 (some centres unmarked); tested on = OATP1B3; scale = literature minimum; measurement = IC50; value = 5 µM
Structure (SMILES) = CCn1c(=O)c(-c2cc(NC(=O)Nc3ccccc3)c(F)cc2Br)cc2cnc(NC)cc21; tested on = human serum albumin; measurement = plasma protein binding; value = 99.8%
